Assay results of several laboratories.
Compare with care: the assays were run in different laboratories. Values joined by “and” are separate records of one study, mostly repeats; a detail may differ. ± gives the spread as reported.
Genome polyprotein NS3 helicase domain: Genome polyprotein, NS3 helicase domain (Hepatitis C virus genotype 1b, UniProt Q9WMX2)
Genome polyprotein protease: Genome polyprotein, protease (Hepatitis C virus genotype 1b, UniProt O92972)
SRC SH3-SH2-kinase domain: Proto-oncogene tyrosine-protein kinase Src, SH3-SH2-kinase domain (SRC, Gallus gallus, UniProt P00523)

SMILES	target	test	test system	setting	IC50
CCN(CC)c1ccc(-c2nc3ccc(C)c(S(=O)(=O)O)c3s2)cc1	Genome polyprotein NS3 helicase domain	ATPase activity, inhibitor, malachite green			> 100 µM
Cc1cc([N+](=O)[O-])cn(CC(=O)c2cc3cc(Br)ccc3[nH]2)c1=O	DNA repair protein RAD52 homolog (RAD52, Homo sapiens, UniProt P43351)	DNA binding, inhibitor, FRET		25 °C, with: Cy3-dT30-Cy5 1 nM	2.02 ± 0.12 µM
CNC(=O)c1ccc(Oc2nc3c(c(=O)n(C)c(=O)n3C)n2CCC(C)C)cc1	Aldehyde dehydrogenase X, mitochondrial (ALDH1B1, Homo sapiens, UniProt P30837)				> 57 µM
O=C(CN1CCOc2ccccc2C1)c1ccc2[nH]c(=O)[nH]c2c1	DNA dC->dU-editing enzyme APOBEC-3G (APOBEC3G, Homo sapiens, UniProt Q9HC16)	enzyme activity, inhibitor		pH 6	740 µM
COc1cc(OC(C)=O)c2cc3c(cc2c1OC(C)=O)CCCC3(C)C	DNA topoisomerase IB (Leishmania donovani, UniProt A0A3Q8IHS4+Q8WQM6)	DNA relaxation activity, inhibitor		with: supercoiled plasmid DNA	> 100 µM
CCOc1cncc(-c2ccc(NC(=O)C(CC)c3ccnc(NS(=O)(=O)C4CC4)n3)nc2)n1 (centres unmarked)	Ctps2 (Mus musculus, UniProt P70303)	cell viability	CTPS-null Jurkat with mouse CTPS2	3 days	0.023 µM
O=C1Nc2ccc(-c3ccc(-c4ccc(O)cc4)cc3)cc2/C1=C/c1ccc(N2CCNCC2)cc1	Fibroblast growth factor receptor 3 (FGFR3, Homo sapiens, UniProt P22607)	enzyme activity, inhibitor			0.00677 µM
CCCCn1c(NN)nc2cc3ccccc3cc2c1=O	Genome polyprotein protease	enzyme activity, inhibitor, FRET			9.08 µM
O=S(=O)(NCc1csc(-c2ccccc2)n1)c1ccc2ccccc2c1	Trypanothione synthetase (Trypanosoma brucei, UniProt Q586P2)	enzyme activity, inhibitor			2.4 µM
O=C1NC(=O)/C(=C/c2ccc(C(=O)NC[C@@H]3C[C@@H](SC(c4ccccc4)(c4ccccc4)c4ccccc4)CN3C(=O)c3ccccc3C(=O)c3ccc(F)cc3F)cc2)S1	Cytosolic phospholipase A2 (PLA2G4A, Homo sapiens, UniProt P47712)	enzyme activity, inhibitor, LC-MS, refers to: arachidonic acid		with: PAPC substrate	1.38 µM and 1.47 µM and 1.88 µM
CN(C(=O)c1ccn2ncc(-c3ccc(C(N)=O)cc3)c2c1)c1ccc(C#N)cn1	Insulin-like growth factor 1 receptor (IGF1R, Homo sapiens, UniProt P08069)	enzyme activity, inhibitor			> 10 µM
CCCCCC/C=C/C=C\C=C\C=C\[C@@H](O)[C@@H](O)CCCC(=O)O	N-formyl peptide receptor 2 (FPR2, Homo sapiens, UniProt P25090)	ligand displacement in cells, radioligand			~0.1 µM
NC(=O)[C@@H]1CCCNC(=O)[C@H](Cc2ccc([N+](=O)[O-])cc2)NC(=O)[C@H](CC2CCCCC2)NC(=O)[C@H](CC2CC2)NC(=O)/C=C/C(=O)N1	SRC SH3-SH2-kinase domain	enzyme activity, inhibitor, Z'-LYTE FRET		Src residues 83-533, with: 50 µM ATP	2 ± 0.1 µM
C=CCn1c(NN)nc2cc3ccccc3cc2c1=O	Genome polyprotein protease	enzyme activity, inhibitor, FRET			16 µM
CN(C)CCNC(=O)c1cccc2c(NCCCCc3c(N)nc(N)nc3N)c3ccccc3nc12	Muscleblind-like protein 1, with cTNT RNA (Homo sapiens, UniProt Q9NR56)	MBNL1-RNA binding, gel mobility shift		no tRNA, with: cTNT RNA, 15 nM MBNL1	> 250 µM
NC(=S)Nc1ccccc1[N+](=O)[O-]	Urea transporter 2 (Rattus norvegicus, UniProt Q62668)	urea transport, inhibitor	MDCK expressing rat UT-A1	20 min	9300 ± 700 µM
Nc1ncnc2c1c(-c1ccc(Oc3ccccc3)cc1)nn2C1CCCC1	Proto-oncogene tyrosine-protein kinase Src, SH2 (SRC, Gallus gallus, UniProt P00523, G530I/P529E/Q528E)	cell-free assay, inhibitor			< 0.025 µM
Cc1ccc(-c2csc(N)n2)cc1	Capsid scaffolding protein, protease domain (Human herpesvirus 8 type P, UniProt Q2HRB6)	protease activity, inhibitor		with: fluorogenic peptide substrate	> 500 µM
CN(C)C/C=C/C(=O)Nc1ccc2nc(NCCCCCN(C)C)nc(NCCCCCCN(C)C)c2c1	Histone-lysine N-methyltransferase SETD2 (SETD2, Homo sapiens, UniProt Q9BYW2)	enzyme activity, inhibitor, radiometric			0.8 µM
CC(=N)NCc1cccc(CN)c1	Nitric oxide synthase 3 (Rattus norvegicus, UniProt Q62600)	cGMP accumulation	rat aortic rings	25 min preincubation, with: acetylcholine 10 µM	744 ± 52 µM
Cc1ccc2oc(-c3c4c(N)n[nH]c(=O)c4nn3-c3ccc(NC(=O)/C=C/CN(C)C)cc3)c(C)c2c1	Cyclin-dependent kinase 1 (CDK1, Homo sapiens, UniProt P06493)	enzyme activity, inhibitor, FRET			> 1 µM
CCC(NC(=O)C(CC(C)C)NC(=O)Nc1ccncc1)C(=O)C(=O)NCc1cc(OC)cc(OC)c1 (centres unmarked)	Calpain-2 catalytic subunit (Capn2, Mus musculus, UniProt O08529)	enzyme activity, inhibitor	mouse pons-cerebellum membranes	with: calcium 2 mM	0.34 µM

SMILES	target	test	test system	setting	IC50
Cc1ccccc1-c1cc(N2CCN(C(=O)CCC(=O)O)CC2)ccc1N(C)C(=O)C(C)(C)c1cc(C(F)(F)F)cc(C(F)(F)F)c1	Substance-P receptor (TACR1, Homo sapiens, UniProt P25103)	IP1 accumulation, antagonist, HTRF		90 min preincubation, with: substance P 10 nM	0.178 µM
Cc1ccc(C[C@@H]2NC(=O)[C@H](CC3CCCCC3)NC(=O)/C=C/C(=O)N[C@H](C(N)=O)CCCNC(=O)[C@H](Cc3ccc([N+](=O)[O-])cc3)NC2=O)cc1	SRC SH3-SH2-kinase domain	enzyme activity, inhibitor, Z'-LYTE FRET		Src residues 83-533, with: 50 µM ATP	0.37 ± 0.04 µM
COc1ccc(-c2csc(N/N=C(\C)c3ccc4c(c3)sc3nc(=O)c(C#N)cn34)n2)cc1	DNA gyrase (gyrA/gyrB, Escherichia coli, UniProt P0AES4+P0AES6)	enzyme activity, inhibitor			1.09 µM
NS(=O)(=O)c1ccc(-n2nc(C(F)(F)F)cc2-c2ccc(F)cc2F)cc1	Cyclooxygenase-2 (Canis lupus familiaris, UniProt Q8SPQ9)	PGE2 formation, inhibitor	dog whole blood	with: LPS	2.8 µM
O=C(Nc1cccc(C(=O)Nc2ccc(S(=O)(=O)O)c3cc(S(=O)(=O)O)cc(S(=O)(=O)O)c23)c1)Nc1cccc(C(=O)Nc2ccc(S(=O)(=O)O)c3cc(S(=O)(=O)O)cc(S(=O)(=O)O)c23)c1	Genome polyprotein NS3 helicase domain	helicase activity, molecular beacon helicase		with: RNA substrate	5.1 ± 1.2 µM
Cc1ccc(/N=C/c2ccc(Cl)cc2Cl)cc1	Xanthine dehydrogenase/oxidase, oxidase form (XDH, Bos taurus, UniProt P80457)	enzyme activity, inhibitor			≤ 379 µM
CN1C(=O)/C=C\C(=O)N[C@H](C(=O)O)CCNC(=O)[C@H](CCCNC(=O)c2cnccn2)NC(=O)[C@H](Cc2ccc(F)cc2)NC(=O)[C@@H]1CC1CCCCC1	SRC SH3-SH2-kinase domain	enzyme activity, inhibitor, Z'-LYTE FRET		Src residues 83-533, with: 50 µM ATP	0.9 ± 0.1 µM
O=S(=O)(Nc1cscn1)c1c(F)cc(NCc2c(F)ccc(F)c2CN2CCC2)cc1F	Sodium channel protein type 8 subunit alpha (SCN8A, Homo sapiens, UniProt Q9UQD0)	ion current, inhibitor, automated patch clamp		resting state, held at -120 mV	> 100 µM
Cc1ccc(C=C2C(=O)c3ccccc3C2NC2CCCCC2)cc1 (racemic)	Dual specificity protein phosphatase 1 (DUSP1, Homo sapiens, UniProt P28562)	ERK phosphorylation restoration, inhibitor, chemical complementation	HeLa transfected with c-Myc-DUSP1	15 min, with: TPA	25.5 ± 6.1 µM
CCN(CC)CC(=O)Nc1cccc(-n2cc(-c3ccc4ccc(-c5cn(-c6cccc(NC(=O)CN(CC)CC)c6)nn5)cc4c3)nn2)c1	kinase panel (PI3K, MAPK, mTOR)	enzyme activity, inhibitor			> 10 µM
CCOc1cc(Cn2cnc3c(N)nc(Cl)nc32)cc(OC(C)C)c1	High affinity cAMP-specific and IBMX-insensitive 3',5'-cyclic phosphodiesterase 8A (PDE8A, Homo sapiens, UniProt O60658)	enzyme activity, inhibitor, radiometric			0.058 µM
CCS(=O)(=O)c1ncc(Cl)c(C(=O)Nc2c(C(=O)Nc3cccc(C)c3)oc3ccccc23)n1	Forkhead box protein M1, DNA-binding domain (FOXM1, Homo sapiens, UniProt Q08050)	DNA binding, inhibitor, EMSA		DNA-binding domain	34.4 ± 11.2 µM
C[C@H](NC(=O)c1sccc1OCc1ccc(Cl)cc1)c1ccccc1	Phosphatidylinositol 3,4,5-trisphosphate 5-phosphatase 1, Ptase-C2 domains (INPP5D, Homo sapiens, UniProt Q92835)	enzyme activity, inhibitor			49.6 µM
CC1=CC(C)=[N+]2C1=C(CCCC(=O)NCCCCCC(=O)NCCCCCC(=O)NCCCC[C@H](NC(=O)N[C@@H](CCC(=O)O)C(=O)O)C(=O)O)c1c(C)cc(C)n1[B-]2(F)F	Glutamate carboxypeptidase 2 (FOLH1, Homo sapiens, UniProt Q04609)	ligand displacement in cells, radioligand			0.0964 µM
NC(=O)c1ccc(C[C@@H]2NC(=O)[C@H](Cc3ccccc3)NC(=O)[C@H](CC3CCCCC3)NC(=O)/C=C/C(=O)N[C@H](C(N)=O)CCCNC2=O)cc1	SRC SH3-SH2-kinase domain	enzyme activity, inhibitor, Z'-LYTE FRET		Src residues 83-533, with: 50 µM ATP	0.036 ± 0.004 µM
Cc1ccc2nc(-c3ccc4nc(-c5ccc(N(C)C(=O)c6ccc7ccccc7c6)cc5)sc4c3)sc2c1S(=O)(=O)O	Genome polyprotein NS3 helicase domain	helicase activity, inhibitor, molecular beacon helicase			14 ± 0.1 µM
O=S(=O)(NCc1nc(-c2ccccc2Cl)no1)c1ccccc1	Trypanothione synthetase (Trypanosoma brucei, UniProt Q586P2)	enzyme activity, inhibitor			25 µM
COP(=O)(OC)OC[C@H]1OC(O)(COP(=O)(O)O)[C@@H](O)[C@@H]1O (some centres unmarked)	Phosphoglycerate mutase 1 (Homo sapiens, UniProt P18669)	enzyme activity, inhibitor			1230 µM
CC(C)NCc1ccc(C[C@@H]2NC(=O)[C@@H](Cc3c[nH]c4ccccc34)NC(=O)[C@H](Cc3ccccc3)NC(=O)[C@H](NC(=O)[C@@H](N)Cc3ccc(Cl)cc3)CSSC[C@@H](C(=O)N[C@@H](Cc3ccc4ccccc4c3)C(N)=O)NC(=O)[C@H](Cc3ccc(O)c(I)c3)NC2=O)cc1	Somatostatin receptor type 5 (SSTR5, Homo sapiens, UniProt P35346)	ligand displacement, radioligand		cell membranes	> 1 µM
CC(=O)N1CCC[C@H]1C(=O)N[C@@H](CC/C=C/C(=O)N(C)C)C(=O)N[C@@H](CC(C)C)C(=O)N1CCC[C@H]1C(=O)N[C@@H](Cc1ccccc1)C(N)=O	Protein-glutamine gamma-glutamyltransferase (TGM2, Homo sapiens, UniProt P21980)	transamidase activity, inhibitor, GDH-coupled		pH 7.2, 25 °C	5.1 µM
COc1ccc(C(C)=O)cc1CC(=O)N1CCC(C(=O)Nc2ccc(Br)cn2)CC1	Trypanothione synthetase (Trypanosoma brucei brucei, UniProt Q586P2)	enzyme activity, BIOMOL Green phosphate release		1 h preincubation	~25 µM
O=S(=O)(NCc1csc(-c2ccccc2)n1)c1ccc(Cl)c(Cl)c1	Trypanothione synthetase (Trypanosoma brucei, UniProt Q586P2)	enzyme activity, inhibitor			5.8 µM
